Measured values of several laboratories.
Each numbered part is a random draw from the data of one study; scales do not carry over between parts. Several values in a cell are separate wells, animals, samples, runs or records.
Sequence of UniProt O75385 (whole entry, looked up): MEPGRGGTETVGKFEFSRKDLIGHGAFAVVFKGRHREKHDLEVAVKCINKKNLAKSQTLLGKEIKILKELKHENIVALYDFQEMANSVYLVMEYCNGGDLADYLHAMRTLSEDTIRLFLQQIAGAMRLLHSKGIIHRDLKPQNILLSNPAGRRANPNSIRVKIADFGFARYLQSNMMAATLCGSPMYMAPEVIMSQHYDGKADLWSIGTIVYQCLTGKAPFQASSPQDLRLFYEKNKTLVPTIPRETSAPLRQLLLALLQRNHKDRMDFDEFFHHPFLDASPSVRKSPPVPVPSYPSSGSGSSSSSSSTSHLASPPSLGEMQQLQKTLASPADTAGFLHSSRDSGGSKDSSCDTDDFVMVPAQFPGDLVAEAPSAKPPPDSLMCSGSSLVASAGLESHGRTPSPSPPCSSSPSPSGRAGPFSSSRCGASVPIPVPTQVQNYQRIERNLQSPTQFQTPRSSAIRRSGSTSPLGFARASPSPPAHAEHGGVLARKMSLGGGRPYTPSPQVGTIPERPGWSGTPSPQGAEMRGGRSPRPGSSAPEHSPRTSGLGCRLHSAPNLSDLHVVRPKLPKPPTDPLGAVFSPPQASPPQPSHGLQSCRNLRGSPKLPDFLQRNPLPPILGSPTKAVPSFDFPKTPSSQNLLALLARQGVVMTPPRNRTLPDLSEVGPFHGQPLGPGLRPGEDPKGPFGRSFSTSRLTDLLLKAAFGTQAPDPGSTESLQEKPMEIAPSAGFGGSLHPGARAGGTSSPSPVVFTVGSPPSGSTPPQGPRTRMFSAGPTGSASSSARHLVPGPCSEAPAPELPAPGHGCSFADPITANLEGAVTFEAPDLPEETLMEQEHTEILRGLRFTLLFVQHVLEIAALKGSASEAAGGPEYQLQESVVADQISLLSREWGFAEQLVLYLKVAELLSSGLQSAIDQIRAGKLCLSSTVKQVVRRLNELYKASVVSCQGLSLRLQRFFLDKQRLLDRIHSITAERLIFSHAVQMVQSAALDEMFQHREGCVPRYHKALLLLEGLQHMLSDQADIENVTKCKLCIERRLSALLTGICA

Sample 1 — read-out: binding; method: radioligand binding; concentration: 10 µM
Target: Histamine H1 receptor (HRH1, Homo sapiens, UniProt P35367)
Sequence of UniProt P35367 (whole entry, looked up): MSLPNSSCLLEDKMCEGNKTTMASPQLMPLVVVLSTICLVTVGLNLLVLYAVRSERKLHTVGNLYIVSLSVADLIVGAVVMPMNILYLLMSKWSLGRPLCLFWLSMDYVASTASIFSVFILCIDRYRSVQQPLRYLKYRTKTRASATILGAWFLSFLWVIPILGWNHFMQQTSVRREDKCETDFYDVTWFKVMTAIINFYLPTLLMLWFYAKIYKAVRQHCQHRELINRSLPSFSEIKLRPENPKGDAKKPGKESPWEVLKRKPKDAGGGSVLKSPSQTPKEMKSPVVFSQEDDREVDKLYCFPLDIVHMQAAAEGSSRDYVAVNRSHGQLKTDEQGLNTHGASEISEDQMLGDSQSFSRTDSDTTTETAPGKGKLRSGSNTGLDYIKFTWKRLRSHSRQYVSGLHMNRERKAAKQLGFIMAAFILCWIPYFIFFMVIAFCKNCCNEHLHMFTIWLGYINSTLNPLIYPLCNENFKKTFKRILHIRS
With `CCOCCn1cc(C(=O)Nc2ccc(-n3nc(-c4cccnc4)cc3C(F)(F)F)cn2)ccc1=O` the inhibition was 12.2%.
With `CC(=O)Nc1nc(CN2CCC[C@H](Cc3cc(C)nc(C)c3)C2)cs1` the inhibition was 44.2%.
`CN([C@@H]1CCc2c(CC(=O)O)c3cc(S(C)(=O)=O)ccc3n2C1)S(=O)(=O)c1ccc(F)cc1` gave an inhibition of -9.04%.
`CC1=C(C#N)C(c2ccc3c(c2)c(NC(=O)c2ccccc2C)nn3C)C(C#N)=C(C)N1` has an inhibition of 0.94%.
For `CC(C)(O)c1cncc(-c2nc3ccc(F)cc3n2C2CC2)c1`, the inhibition was 9.54%.
With `Cc1c(N2CCCC2)nc2ccc(Br)cc2c1C(=O)NC[C@H](CCC(=O)O)c1ccccc1Cl` the inhibition was 4.61%.
`C[C@@H]1CN(c2cc(-c3nn(C)c4ccc(OC5(C)CC5)cc34)ncn2)C[C@H](C)O1` has an inhibition of 11.9%.
`COCCc1ccc(-c2c(C)nc3c(N4CCOCC4)ccnn23)cn1` gave an inhibition of 24.6%.
With `Cc1c(NC(=O)c2cc(C(N)=O)nc3cc(F)ccc23)c(C(F)(F)F)nn1Cc1ccc(C(C)(C)C)cc1` the inhibition was 46.1%.
The inhibition of `CN1CCN(C(=O)C(C)(C)c2ccc(C(=O)Nc3cn4cc(-c5ccncc5)ccc4n3)cc2)CC1` is reported as 54.9%.
The inhibition of `O=C1c2ccc(Nc3ccc(F)cc3F)cc2CCc2ccc(OC[C@H](O)CO)cc21` is reported as 12.7%.
The inhibition of `CCCOc1ccc([C@H]2[C@H](C(=O)O)[C@@H](c3ccc4c(c3)OCO4)CN2CC(=O)Nc2c(CC)cccc2CC)cc1` is reported as 36%.
The inhibition of `CC(C)CC(=O)N1CCc2nc(-c3ccc(Br)cc3)nc(N(C)Cc3ccccc3)c2C1` is reported as 12.6%.
`Cc1cc(C)c(-n2ccn3nc(-c4cccnc4)cc23)cc1NC(=O)c1cc(C#N)cc(S(F)(F)(F)(F)F)c1` gave an inhibition of 25.3%.
`Cc1cc(-n2nc(Cc3cc(F)cc(C(F)(F)F)c3)nc2C)ccc1C(N)=O` gave an inhibition of 8.06%.
With `O=C(Nc1cnc(Oc2ccc(F)cc2)nc1)N1CCc2ncccc2[C@@H]1c1ccc(F)cc1` the inhibition was 5.89%.
`COc1cc(-c2cn(C3CCc4ccccc4N(CC(F)(F)F)C3=O)nn2)ccc1-n1ccc(C)n1` (stereo not drawn) has an inhibition of 9.72%.
`CS(=O)(=O)NCC[C@H](NC(=O)c1cncc2c1cnn2-c1ccc(F)cc1)c1ccnc(S(C)(=O)=O)c1` gave an inhibition of 12.5%.
`CC(=O)N1CCC(c2ccc(C(=O)NC(=N)N)cc2C(F)(F)F)CC1` gave an inhibition of 7.6%.
The inhibition of `CC(=O)Nc1c(F)cc(C(=O)N[C@H]2CC[C@H](O)CC2)cc1O[C@@H](C)c1ccccc1` is reported as -10.7%.
`Cc1nc(Cc2cccc(C(F)(F)F)c2)sc1-c1ccc(C(N)=O)nc1` has an inhibition of 9.3%.
`Cc1nc(N2CC[C@@H](O)C2)ncc1-c1cc(C(F)(F)F)cc2[nH]ncc12` gave an inhibition of 0.239%.
For `O=C([C@H]1C[C@H](O)CN1c1ccc(Cl)cc1)N1CC2COCC(C1)N2Cc1ccc(Cl)cc1`, the inhibition was 14.3%.
With `COc1nc2ccc([C@@](O)(c3ccccc3)C3CCN(C(C)=O)CC3)cc2c(Cl)c1Cc1ccc(-n2cccn2)cc1` the inhibition was 38%.
For `O=C(O)[C@@H]1[C@@H](Cn2nnc3ccccc3c2=O)CC[C@H]1C(=O)c1ccc(OCCC2CCOCC2)cc1`, the inhibition was 1.6%.

Sample 2 — read-out: enzyme activity; action: inhibitor; concentration: 77 µM; relative to: untreated
Target: DNA polymerase theta, ATPase domain (POLQ, Homo sapiens, UniProt O75417)
Sequence of UniProt O75417 (whole entry, unmodified, looked up): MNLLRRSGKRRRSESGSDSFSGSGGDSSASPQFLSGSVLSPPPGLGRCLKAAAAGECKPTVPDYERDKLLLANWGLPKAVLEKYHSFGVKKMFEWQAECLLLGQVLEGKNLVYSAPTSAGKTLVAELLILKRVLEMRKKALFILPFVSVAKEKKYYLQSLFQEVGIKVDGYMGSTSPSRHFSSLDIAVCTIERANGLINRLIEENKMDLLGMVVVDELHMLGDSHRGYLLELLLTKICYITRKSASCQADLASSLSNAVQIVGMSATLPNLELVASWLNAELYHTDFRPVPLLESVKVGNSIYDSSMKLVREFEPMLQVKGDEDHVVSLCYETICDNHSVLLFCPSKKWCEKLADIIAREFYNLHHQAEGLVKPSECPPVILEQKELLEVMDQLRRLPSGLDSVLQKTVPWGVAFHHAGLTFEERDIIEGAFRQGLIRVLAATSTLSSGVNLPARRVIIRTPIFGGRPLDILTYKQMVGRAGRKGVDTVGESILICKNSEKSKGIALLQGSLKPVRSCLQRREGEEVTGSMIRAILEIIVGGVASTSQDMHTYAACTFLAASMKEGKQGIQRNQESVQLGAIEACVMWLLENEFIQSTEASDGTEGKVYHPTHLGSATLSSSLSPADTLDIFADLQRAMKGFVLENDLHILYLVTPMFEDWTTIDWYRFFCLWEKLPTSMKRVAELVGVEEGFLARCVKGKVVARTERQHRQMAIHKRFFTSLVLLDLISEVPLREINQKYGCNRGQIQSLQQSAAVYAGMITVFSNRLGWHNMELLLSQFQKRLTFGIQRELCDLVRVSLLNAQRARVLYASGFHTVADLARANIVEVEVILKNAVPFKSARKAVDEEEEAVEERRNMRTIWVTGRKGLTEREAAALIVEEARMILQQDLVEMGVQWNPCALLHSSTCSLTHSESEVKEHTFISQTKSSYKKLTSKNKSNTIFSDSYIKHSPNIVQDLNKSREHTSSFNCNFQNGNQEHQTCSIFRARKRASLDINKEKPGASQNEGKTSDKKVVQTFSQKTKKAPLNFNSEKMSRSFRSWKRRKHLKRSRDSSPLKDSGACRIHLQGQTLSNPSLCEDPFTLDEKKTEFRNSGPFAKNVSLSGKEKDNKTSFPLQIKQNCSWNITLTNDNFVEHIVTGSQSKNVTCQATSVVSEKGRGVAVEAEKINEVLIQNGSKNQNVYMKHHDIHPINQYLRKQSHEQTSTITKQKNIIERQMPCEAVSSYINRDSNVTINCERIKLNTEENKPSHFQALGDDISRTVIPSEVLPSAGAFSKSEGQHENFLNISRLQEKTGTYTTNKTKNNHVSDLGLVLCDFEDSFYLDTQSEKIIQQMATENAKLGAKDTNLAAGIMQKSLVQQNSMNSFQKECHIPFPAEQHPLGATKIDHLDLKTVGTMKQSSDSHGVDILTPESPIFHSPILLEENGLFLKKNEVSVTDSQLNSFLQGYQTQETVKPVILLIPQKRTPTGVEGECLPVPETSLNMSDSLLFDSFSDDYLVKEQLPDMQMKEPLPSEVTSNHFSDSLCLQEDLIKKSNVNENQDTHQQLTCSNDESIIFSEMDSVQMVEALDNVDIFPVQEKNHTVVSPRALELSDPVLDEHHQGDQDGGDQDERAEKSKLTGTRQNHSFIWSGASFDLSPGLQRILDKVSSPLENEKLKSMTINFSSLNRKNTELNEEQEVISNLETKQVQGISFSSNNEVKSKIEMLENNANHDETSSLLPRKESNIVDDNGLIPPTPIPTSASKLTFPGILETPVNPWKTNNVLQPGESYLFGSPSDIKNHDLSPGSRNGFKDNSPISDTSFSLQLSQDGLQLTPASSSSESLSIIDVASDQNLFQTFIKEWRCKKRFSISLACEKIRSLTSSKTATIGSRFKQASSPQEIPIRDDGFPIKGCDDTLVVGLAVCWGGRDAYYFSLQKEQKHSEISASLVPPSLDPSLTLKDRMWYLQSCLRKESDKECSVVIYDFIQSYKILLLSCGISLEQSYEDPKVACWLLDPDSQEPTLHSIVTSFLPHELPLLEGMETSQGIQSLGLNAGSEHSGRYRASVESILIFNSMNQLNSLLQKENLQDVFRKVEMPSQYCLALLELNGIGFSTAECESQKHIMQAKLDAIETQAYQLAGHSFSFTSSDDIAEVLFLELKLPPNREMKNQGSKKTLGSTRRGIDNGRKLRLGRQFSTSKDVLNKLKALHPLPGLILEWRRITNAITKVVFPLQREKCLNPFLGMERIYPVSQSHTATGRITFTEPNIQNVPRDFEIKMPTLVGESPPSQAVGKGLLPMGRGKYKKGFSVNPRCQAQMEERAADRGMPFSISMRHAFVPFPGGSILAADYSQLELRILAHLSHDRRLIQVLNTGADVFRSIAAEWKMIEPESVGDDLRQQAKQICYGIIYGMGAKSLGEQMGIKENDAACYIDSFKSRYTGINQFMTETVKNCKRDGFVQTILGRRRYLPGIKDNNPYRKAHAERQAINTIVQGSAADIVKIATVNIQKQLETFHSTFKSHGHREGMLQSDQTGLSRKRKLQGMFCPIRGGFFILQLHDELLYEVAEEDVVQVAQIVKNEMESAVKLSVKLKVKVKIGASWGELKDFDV
For `CCOC(=O)O[C@]1(C(=O)COC(=O)CC)CC[C@H]2[C@@H]3CCC4=CC(=O)C=C[C@]4(C)[C@H]3[C@@H](O)C[C@@]21C`, the remaining activity was 98.2%.
`CC(=O)[C@H]1CC[C@H]2[C@@H]3C=CC4=CC(=O)CC[C@@]4(C)[C@@H]3CC[C@]12C` gave a remaining activity of 96.5% and 91.8%.
For `c1ccc2c(-c3ccncc3)c[nH]c2c1`, the remaining activity was 102%.
With `Nc1ccccc1NC(=O)c1ccc(CNc2nccc(-c3cccnc3)n2)cc1` the remaining activity was 101%.
`CC1(C)O[C@H]2CC(=O)OC[C@]23[C@H]2CC[C@@]4(C)[C@H](c5ccoc5)OC(=O)[C@H]5O[C@]54[C@]2(C)C(=O)C[C@@H]13` gave a remaining activity of 86%.
For `C[C@@H]1CCC[C@H](C)N1NC(=O)c1ccc(Cl)c(S(N)(=O)=O)c1`, the remaining activity was 102%.
With `Nc1nc(O)c2ncn(CCC(CO)CO)c2n1` the remaining activity was 100%.
With `COCC(=O)O[C@]1(CCN(C)CCCc2nc3ccccc3[nH]2)CCc2cc(F)ccc2[C@@H]1C(C)C` the remaining activity was 104%.
For `Cc1ncc([N+](=O)[O-])n1CCO`, the remaining activity was 87.1% and 101%.

Sample 3 — read-out: enzyme activity; action: inhibitor; concentration: 10 µM
Target: Calcium/calmodulin-dependent protein kinase type II subunit alpha (CAMK2A, Homo sapiens, UniProt Q9UQM7)
Sequence of UniProt Q9UQM7 (whole entry, looked up): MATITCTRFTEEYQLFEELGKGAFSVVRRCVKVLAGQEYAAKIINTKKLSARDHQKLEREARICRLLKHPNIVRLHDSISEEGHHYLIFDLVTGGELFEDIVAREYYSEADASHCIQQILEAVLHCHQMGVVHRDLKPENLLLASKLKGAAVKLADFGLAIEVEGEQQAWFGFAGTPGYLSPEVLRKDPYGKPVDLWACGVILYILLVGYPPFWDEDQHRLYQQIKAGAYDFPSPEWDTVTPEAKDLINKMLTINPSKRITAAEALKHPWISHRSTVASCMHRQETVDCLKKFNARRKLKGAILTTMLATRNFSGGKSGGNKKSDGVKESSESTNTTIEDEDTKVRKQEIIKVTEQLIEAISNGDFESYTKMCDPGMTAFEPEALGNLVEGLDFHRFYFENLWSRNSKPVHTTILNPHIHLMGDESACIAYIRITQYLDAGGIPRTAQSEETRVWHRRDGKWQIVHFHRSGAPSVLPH
`Cc1cc(C#N)cc(C)c1Oc1nc(Nc2ccc(C#N)cc2)nc(N)c1Br` has an inhibition of -8%.
With `Cc1ccc(C(C)C)cc2c(C)ccc1-2` the inhibition was 26%.
`CC(C)C(=O)OC[C@H]1O[C@@H](n2ccc(NO)nc2=O)[C@H](O)[C@@H]1O` has an inhibition of -3%.
The inhibition of `COc1ccc(/C=C/C(=O)O[C@@H]2[C@H](O[C@@H]3O[C@@H](C)[C@H](O)[C@@H](O)[C@H]3O)[C@@H](O[C@@H]3O[C@@H](C)[C@H](O[C@@H]4OC[C@@H](O[C@@H]5O[C@H](CO)[C@H](O)[C@H](O)[C@H]5O)[C@H](O)[C@H]4O)[C@@H](O)[C@H]3O)[C@H](OC(=O)[C@]34CCC(C)(C)C[C@H]3C3=CC[C@@H]5[C@@]6(C)C[C@H](O)[C@H](O[C@@H]7O[C@H](CO)[C@@H](O)[C@H](O)[C@H]7O)[C@@](C)(C(=O)O)[C@@H]6CC[C@@]5(C)[C@]3(CO)CC4)O[C@@H]2C)cc1` is reported as 27%.
`CC(C)CCCCCCCCCCCC(=O)O` has an inhibition of -100%.

Sample 4 — read-out: enzyme activity; concentration: 10 µM; relative to: untreated control
SMILES: Cc1sc(C(=O)NC2COC2)cc1-n1cc(NC(=O)Nc2c(F)cccc2Cl)cn1
The remaining activity was 70.8% (Serine/threonine-protein kinase ULK1 (ULK1, Homo sapiens, UniProt O75385)).
The remaining activity was 97% (Cyclin-dependent kinase 5, with p25 (CDK5, Homo sapiens, UniProt Q00535)).
Serine/threonine-protein kinase Nek11 (NEK11, Homo sapiens, UniProt Q8NG66) — remaining activity: 63.5%.
The remaining activity was 136% (Fibroblast growth factor receptor 3 (FGFR3, Homo sapiens, UniProt P22607)).
It gave 93.8% for remaining activity (Serine/threonine-protein kinase 38-like (STK38L, Homo sapiens, UniProt Q9Y2H1)).
For Casein kinase II subunit alpha' (CSNK2A2, Homo sapiens, UniProt P19784): remaining activity read 93.3%.
Tyrosine-protein kinase ABL2 (ABL2, Homo sapiens, UniProt P42684) — remaining activity: 122%.
It gave 102% for remaining activity (Tau-tubulin kinase 1 (TTBK1, Homo sapiens, UniProt Q5TCY1)).

Sample 5 — read-out: kinase activity; action: inhibitor; method: ADP-Glo; time: 1 h
Structure (SMILES): CC(C)S(=O)(=O)c1cc2c(Nc3ccc4sc(C5CCCC5)nc4c3)ccnc2cc1OCCO
Target: Receptor-interacting serine/threonine-protein kinase 3 (RIPK3, Homo sapiens, UniProt Q9Y572)
Sequence of UniProt Q9Y572 (whole entry, looked up): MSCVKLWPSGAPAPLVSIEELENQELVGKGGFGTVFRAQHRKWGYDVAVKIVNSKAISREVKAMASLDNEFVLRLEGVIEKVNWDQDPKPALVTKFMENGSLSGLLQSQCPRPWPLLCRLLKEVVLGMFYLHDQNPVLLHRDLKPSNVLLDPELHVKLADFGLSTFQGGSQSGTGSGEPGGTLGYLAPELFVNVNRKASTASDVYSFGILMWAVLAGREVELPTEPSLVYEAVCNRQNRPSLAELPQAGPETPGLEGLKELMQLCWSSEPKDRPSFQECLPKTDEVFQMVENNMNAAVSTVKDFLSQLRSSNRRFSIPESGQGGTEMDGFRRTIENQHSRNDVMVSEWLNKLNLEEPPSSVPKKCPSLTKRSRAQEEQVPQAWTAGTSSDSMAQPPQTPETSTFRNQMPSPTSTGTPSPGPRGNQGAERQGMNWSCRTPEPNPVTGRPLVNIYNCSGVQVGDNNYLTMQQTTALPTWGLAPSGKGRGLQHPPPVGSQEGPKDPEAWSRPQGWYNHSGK
The inhibition was 102% (300 nM).
The inhibition was 60.6% (18.75 nM).
The inhibition was 87.9% (37.5 nM).
75 nM — inhibition: 101%.

For quick reference, copied from above (sample 1):
`COc1cc(-c2cn(C3CCc4ccccc4N(CC(F)(F)F)C3=O)nn2)ccc1-n1ccc(C)n1` (stereo not drawn) has an inhibition of 9.72%.
The inhibition of `CN1CCN(C(=O)C(C)(C)c2ccc(C(=O)Nc3cn4cc(-c5ccncc5)ccc4n3)cc2)CC1` is reported as 54.9%.
`CC1=C(C#N)C(c2ccc3c(c2)c(NC(=O)c2ccccc2C)nn3C)C(C#N)=C(C)N1` has an inhibition of 0.94%.
With `CC(=O)Nc1nc(CN2CCC[C@H](Cc3cc(C)nc(C)c3)C2)cs1` the inhibition was 44.2%.
With `Cc1c(N2CCCC2)nc2ccc(Br)cc2c1C(=O)NC[C@H](CCC(=O)O)c1ccccc1Cl` the inhibition was 4.61%.
